Experimental data gathered from unrelated publications.
Numbered parts are unrelated; each lists some results of a single study.

Study 1
Target: Histone acetyltransferase KAT6A, winged helix 1, GST fusion (KAT6A, Homo sapiens, UniProt Q92794, residues 1-85)
Technique: protein binding microarray
Form: double-stranded DNA, one strand shown
Medium: in vitro
Concentration: not given
Setting: 8-mer, flanks averaged, mean of 2 arrays, mostly near background
Reference: not given
Direction: higher = stronger binding
Target sequence (chain): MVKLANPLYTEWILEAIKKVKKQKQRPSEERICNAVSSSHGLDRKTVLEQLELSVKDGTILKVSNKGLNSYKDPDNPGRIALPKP
| Strand | E-score |
| --- | --- |
| AAGCCACG | -0.0237 |
| AGTGCTGC | 0.0364 |
| TAGAGCGA | 0.00799 |
| AACGACGA | -0.145 |
| ACCTAGGA | -0.105 |

Study 2
Target: Interferon regulatory factor 5, full length, phosphomimetic (IRF5, Homo sapiens, UniProt Q13568-2, residues 1-514, S451D/S453D/S456D/S462D)
Technique: protein-binding microarray
Form: double-stranded DNA, one strand shown
Medium: in vitro
Concentration: 940 nM top
Setting: 60-bp whole probe
Together with: salmon DNA 0.4 mg/ml
Reference: random background probes
Direction: higher = stronger binding
| Strand | fitted relative affinity |
| --- | --- |
| GCCTAGCACTTAGGACTGGACACAGGGTTAGTGCTAGTCTTGATTCGCTTGACGCTGCTG | -0.5 z-score |
| GCCTAGCACTTAGCTATCAGACTGGATTAGTGCTAGGTCTTGATTCGCTTGACGCTGCTG | -0.612 z-score |
| GCCTAGCACGGATGTCTGTAGCTCATTCTGTGCTAGGTCTTGATTCGCTTGACGCTGCTG | -0.589 z-score |

Study 3
Target: Sal-like protein 4, full length isoform B (SALL4, Homo sapiens, UniProt Q9UJQ4-2, residues 1-616)
Technique: universal PBM
Form: double-stranded DNA, one strand shown
Medium: in vitro
Concentration: not given
Setting: 8-mer, flanks averaged, mean of replicates
Direction: higher = stronger binding
Construct (chain): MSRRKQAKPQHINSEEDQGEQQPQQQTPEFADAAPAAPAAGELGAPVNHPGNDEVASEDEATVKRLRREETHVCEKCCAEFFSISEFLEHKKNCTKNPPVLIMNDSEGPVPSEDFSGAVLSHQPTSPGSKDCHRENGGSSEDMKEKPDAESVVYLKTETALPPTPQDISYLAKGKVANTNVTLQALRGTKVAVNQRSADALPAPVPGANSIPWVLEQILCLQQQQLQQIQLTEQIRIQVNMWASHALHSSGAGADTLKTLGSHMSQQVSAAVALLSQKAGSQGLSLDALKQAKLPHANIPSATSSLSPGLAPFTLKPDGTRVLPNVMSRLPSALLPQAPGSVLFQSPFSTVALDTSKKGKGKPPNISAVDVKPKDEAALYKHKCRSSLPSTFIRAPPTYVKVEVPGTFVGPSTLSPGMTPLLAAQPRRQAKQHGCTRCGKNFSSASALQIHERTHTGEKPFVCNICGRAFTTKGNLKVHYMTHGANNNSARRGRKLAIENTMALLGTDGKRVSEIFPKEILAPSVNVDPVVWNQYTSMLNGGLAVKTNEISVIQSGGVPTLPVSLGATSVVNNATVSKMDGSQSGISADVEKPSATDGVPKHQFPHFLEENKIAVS
| Strand | E-score |
| --- | --- |
| CAAGGATG | 0.0314 |
| CAGAGGCC | -0.201 |
| GTGACAAC | -0.0179 |
| AAGCTAAG | -0.143 |
| ACTCGCCG | -0.154 |

Mixed results
| Substance | target | test | test system | conditions | scale | measurement | result |
| --- | --- | --- | --- | --- | --- | --- | --- |
| PhoQ, residues 284 288 289 292 302 303 TLASMF | PhoP, residues 12 14 15 18 19 DLLYY (Escherichia coli, UniProt P23836) | Sort-seq, measured: YFP reporter | E. coli | PhoQ-PhoP variant library, together with: 10 µM Mg2+ | reference: high Mg2+ state, higher = stronger signaling | fold induction | 0.849 |

Some of these lines once more (study 3):
| Strand | E-score |
| --- | --- |
| ACTCGCCG | -0.154 |
